Results gathered from unrelated publications.
± gives the spread as reported.
Method: steady-state kinetics
B1: enzyme (Phocaeicola vulgatus, UniProt A6KWY5); chain MKAIQITAPSEMKVVDIEKPVLEPGEVLVKIKYVGFCGSDLNTFLGRNPMVKLPVIPGHEVGAVIEAVGKDVPDSLKPGMSVTVNPYTNCGKCASCRNGRVNACEHNETLGVQRNGAMCEYIALPWSKIIPAHRIPPRDCALIEPMSVGFHAVSRAQVTDIDIVMVIGCGMIGMGAIVRSALRGATVIAVDLDDEKLELAKRIGAHHTINSMTENVHECLTKITEGLGPDVVIEAVGSPATYVMAVNEVGFTGRVVCIGYAKSEVSFQTKYFVQKELDIRGSRNALPTDFRAVIRYMEQGTCPKNELISKVVKPEAAIQAMKEWAAAPGKVFRILVEFD
B2: ybiA (Escherichia coli, UniProt P30176); chain MPVRAQRIQHVMQDTIINFYSTSDDYGDFSNFAAWPIKVDGKTWPTSEHYFQAQKFLDEKYREEIRRVSSPMVAARMGRDRSKPLRKNWESVKEQVMRKALRAKFEQHAELRALLLATAPAKLVEHTENDAYWGDGGHGKGKNRLGYLLMELREQLAIEK
B3: protein Y93N (Thermus thermophilus, UniProt Q5SKR5); chain MSAPKPFVIGIAGGTASGKTTLAQALARTLGERVALLPMDHYYKDLGHLPLEERLRVNYDHPDAFDLALYLEHAQALLRGLPVEMPVYDFRANTRSPRRTPVRPAPVVILEGILVLYPKELRDLMDLKVFVDADADERFIRRLKRDVLERGRSLEGVVAQYLEQVKPMHLHFVEPTKRYADVIVPRGGQNPVALEMLAAKALARLARMGAA
B4: dihydrodipicolinate synthase homolog (Oceanobacillus iheyensis, UniProt Q8EMJ7); chain MDYGEFSKRFSTISGINIVPFLEGTREIDWKGLDDNVEFLLQNGIEVIVPNGNTGEFYALTIEEAKQVATRVTELVNGRATVVAGIGYSVDTAIELGKSAIDSGADCVMIHQPVHPYITDAGAVEYYRNIIEALDAPSIIYFKDAHLSDDVIKELAPLDKLVGIKYAINDIQRVTQVIRAVPKSSNVAFICGTAEKWAPFFYHAGAVGFTSGLVNVFPQKSFALLEALEEGNQEKIWDVWEDVVPFEDLRAKHNNGNNVVIIKEAMEQLGLRAGVTREPVNPLSPNDRLELEELLKSWNTQEVR
B5: protein (UniProt M4ZR24); chain MNEIGTTWAEGTSERVIRLLTDKRAGRPMSGPDIEGLVKDFTAGSVPDYQMASWLATVACAGLSAEELTALTAAYVDSGERLSLSSSRRPVADKHSTGGVGDKTTLVVAPVVAACGIGVGKVTGRGLGFMGGTVDKLESIPGLDLELSGSALSAQVADLGLAVTGQSPSLVPGDRMTYALRDVTGTVDSIPLIAASIMSKNTKGIAVRCNSIVLDVKYGDGAVLPDRAVATELARTMLELGRSFDLPTTAVISSMEQPLGYAVGNGLEVREAIIALSGTYVEDLTELAITISALMISTADSAVDHDRARDRVREVLSDGSALRMFRAFVARQGGDVGFVDDPSRLETAPHRLVVTATEAGHVARIAARRIGEAALRVGAGRLVYGAPIDHGAGIVLSRRIGDSVAEGEPLATLHGSDYDQLESLADVVRGCFDISERPPGRPDVIVDVLRQGDAG
B6: enzyme (Comamonas testosteroni, UniProt B7WQT1); chain MMTHEENELLCRVEGDAPMGRLMRRHWTPICLVEEVGEPDGTPVKARAFGEDLVVFRDSEGRVGVMDEYCPHRRASLVYGRNEEGGLRCLYHGWKMDVDGNVLEMASEPAASGMVDKVKHTAYPTQEWAGMVWAYMGPKETMPEFLPPAWAPTADTRVSIAKVLLPCNWAQILEGAIDSAHSSSLHSSDMVPARVDGAKATDKTWLRPSTDKAPRMQVQRTGYGFRYAALRRPLSNAAENDYVRSTVFVAPATALIPPNNLYNVANINVPMDDTNTAFYFIAWGHPSQTPETETWRKFLRQTVGVDLDQNYRPLRNEANKFWQDRNAMKAGNFTGITGFPNQDVAMWLTMGPIADRTHDRLGASDLAIVEFRKQMLDAVKAFEQGAPAIGTGVEAATPTVCSFQAIVPKTTDWRTYDAHYVWLDGQDRPEFEPSYSVKS
B7: iodotyrosine deiodinase (Haliscomenobacter hydrossis, UniProt F4KU78); chain MKQKPAFIPYAGAQFEPEEMLSKSAEYYQFMDHRRTVREFSNRAIPLEVIENIVMTASTAPSGAHKQPWTFVVVSDPQIKAKIRQAAEKEEFESYNGRMSNEWLEDLQPFGTDWHKPFLEIAPYLIVVFRKAYDVLPDGTQRKNYYVQESVGIACGFLLAAIHQAGLVALTHTPSPMNFLQKILQRPENERPFLLVPVGYPAEGAMVPDLQRKDKAAVMVVY
B8: Mj-MAT W387F/Y72W (Methanocaldococcus jannaschii, UniProt Q58605); chain MRNIIVKKLDVEPIEERPTEIVERKGLGHPDSICDGIAESVSRALCKMYMEKFGTILHHNTDQVELVGGHAWPKFGGGVMVSPIYILLSGRATMEILDKEKNEVIKLPVGTTAVKAAKEYLKKVLRNVDVDKDVIIDCRIGQGSMDLVDVFERQKNEVPLANDTSFGVGYAPLSTTERLVLETERFLNSDELKNEIPAVGEDIKVMGLREGKKITLTIAMAVVDRYVKNIEEYKEVIEKVRKKVEDLAKKIADGYEVEIHINTADDYERESVYLTVTGTSAEMGDDGSVGRGNRVNGLITPFRPMSMEAASGKNPVNHVGKIYNILANLIANDIAKLEGVKECYVRILSQIGKPINEPKALDIEIITEDSYDIKDIEPKAKEIANKFLDNIMEVQKMIVEGKVTTF
B9: sacB S173T (Priestia megaterium, UniProt D5DC07); chain KGNDSKDFNNSYGISHITRDNMVKIPQQQNSDQFKVPAFDESTIKNIASAKGKNASGNTIDLDVWDSWPLQNADGTVATYHGYQIVFALAGDPKDSNDTSVYLFYKKAGDKSIDSWKNAGRVFKDSDKFVPNDPHLKNQTQEWTGSGTLTKDGKVRLFYTDYSGKQYGKQTLTTAQVNMSQPNDNTLKVDGVEDYKSIFDGDGKIYQTVQQFIDEGGYDTGDNHTLRDPHYIEDNGHKYLVFEANTGTEDGYQGEDSLYNRAYYGGNNPFFQSEKKKLLEGSNKEKASLANGALGIIELNDDYTLKKVMKPLITSNTVTDEIERANIFKKDGKWYLFTDSRGSKMTIDGIGQDDVYMLGYVSNTLTGKYKPLNDTGLVLHMDLDPNDKTFTYSHFAVPQTKGDNVVITSYMTNRGFYEDNHSTFAPSFLVNIDGSKTSVVKDRVLEQGQLTVDED
B10: enzyme D208A (Thermococcus kodakarensis, UniProt Q5JID5); chain MLYVEILGNLPEMARDEVKAMLELGGGEIIGQDYLFLKVDAGEKAFPFLDRLGLAHEYGLLLVEADSVEELLQKAGEVEWPIKGAFKVDTETMANCRHDVLDLPRKLGAVIHAQGFRVNLSKPDTVVRVYCGERLYAGIRLRYFDPKDFEKRKAHHRPFFRPISLHPRVSRALVNLTKATREILDPFMGAGGILIEAGLLGLRVYGVAIRPEMVEGAETNLKHYGVRDYTLKLGDATRLEDLFPDKKFEAVATDPPYGTAATLAGRKRDELYRKALRSIYNVLEDGGRLAIAFPTDFNGKAEAEAVGFRTLGRYYQRVHKSLERYFYVFEK
Chain of UniProt Q9STE6 (whole entry, looked up): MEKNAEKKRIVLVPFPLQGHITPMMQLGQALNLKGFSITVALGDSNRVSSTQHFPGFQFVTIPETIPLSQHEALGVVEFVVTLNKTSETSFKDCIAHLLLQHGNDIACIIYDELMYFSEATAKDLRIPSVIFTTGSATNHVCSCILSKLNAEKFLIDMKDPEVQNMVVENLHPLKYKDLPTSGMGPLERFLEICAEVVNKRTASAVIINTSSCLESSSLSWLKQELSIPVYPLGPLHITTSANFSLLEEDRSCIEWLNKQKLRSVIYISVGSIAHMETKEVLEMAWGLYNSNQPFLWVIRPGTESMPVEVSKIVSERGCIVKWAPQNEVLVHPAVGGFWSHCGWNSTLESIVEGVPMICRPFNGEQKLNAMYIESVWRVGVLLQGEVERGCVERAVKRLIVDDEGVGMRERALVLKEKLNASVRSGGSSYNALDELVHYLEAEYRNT
Chain of UniProt P38999 (whole entry, looked up): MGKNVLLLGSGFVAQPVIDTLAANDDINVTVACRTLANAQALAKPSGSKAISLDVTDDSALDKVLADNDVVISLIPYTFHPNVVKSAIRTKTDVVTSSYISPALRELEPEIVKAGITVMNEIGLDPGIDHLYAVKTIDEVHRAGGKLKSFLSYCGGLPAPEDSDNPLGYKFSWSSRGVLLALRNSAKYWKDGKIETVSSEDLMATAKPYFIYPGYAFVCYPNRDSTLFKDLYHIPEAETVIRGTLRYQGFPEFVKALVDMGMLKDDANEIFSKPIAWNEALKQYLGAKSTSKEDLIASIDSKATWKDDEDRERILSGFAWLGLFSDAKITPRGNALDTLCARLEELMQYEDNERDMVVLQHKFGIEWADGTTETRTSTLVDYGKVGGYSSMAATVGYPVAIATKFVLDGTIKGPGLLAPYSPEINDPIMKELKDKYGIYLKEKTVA
Chain of UniProt Q47KB1 (whole entry, looked up): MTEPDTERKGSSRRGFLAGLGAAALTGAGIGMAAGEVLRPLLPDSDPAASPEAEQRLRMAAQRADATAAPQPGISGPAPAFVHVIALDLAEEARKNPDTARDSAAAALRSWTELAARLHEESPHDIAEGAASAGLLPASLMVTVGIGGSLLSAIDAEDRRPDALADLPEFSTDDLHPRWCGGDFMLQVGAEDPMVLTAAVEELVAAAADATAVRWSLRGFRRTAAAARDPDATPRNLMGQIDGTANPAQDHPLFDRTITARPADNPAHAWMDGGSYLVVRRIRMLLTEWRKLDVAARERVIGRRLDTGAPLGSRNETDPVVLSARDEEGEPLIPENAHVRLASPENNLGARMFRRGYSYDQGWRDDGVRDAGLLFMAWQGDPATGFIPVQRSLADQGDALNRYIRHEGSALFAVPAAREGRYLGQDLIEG
Chain of UniProt P34752 (whole entry, looked up): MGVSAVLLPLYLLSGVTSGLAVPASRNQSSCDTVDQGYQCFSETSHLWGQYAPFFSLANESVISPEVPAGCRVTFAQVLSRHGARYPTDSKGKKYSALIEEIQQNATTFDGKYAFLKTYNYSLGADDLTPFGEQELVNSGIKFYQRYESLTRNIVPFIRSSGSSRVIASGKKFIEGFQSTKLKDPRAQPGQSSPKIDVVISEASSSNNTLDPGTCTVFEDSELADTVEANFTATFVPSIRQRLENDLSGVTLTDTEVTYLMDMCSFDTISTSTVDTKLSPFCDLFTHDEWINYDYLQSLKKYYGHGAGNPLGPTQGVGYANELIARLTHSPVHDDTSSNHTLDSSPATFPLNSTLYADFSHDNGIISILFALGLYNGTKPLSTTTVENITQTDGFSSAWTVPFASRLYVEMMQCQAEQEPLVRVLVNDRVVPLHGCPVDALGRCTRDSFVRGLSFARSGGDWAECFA
Chain of UniProt P76342 (whole entry, looked up): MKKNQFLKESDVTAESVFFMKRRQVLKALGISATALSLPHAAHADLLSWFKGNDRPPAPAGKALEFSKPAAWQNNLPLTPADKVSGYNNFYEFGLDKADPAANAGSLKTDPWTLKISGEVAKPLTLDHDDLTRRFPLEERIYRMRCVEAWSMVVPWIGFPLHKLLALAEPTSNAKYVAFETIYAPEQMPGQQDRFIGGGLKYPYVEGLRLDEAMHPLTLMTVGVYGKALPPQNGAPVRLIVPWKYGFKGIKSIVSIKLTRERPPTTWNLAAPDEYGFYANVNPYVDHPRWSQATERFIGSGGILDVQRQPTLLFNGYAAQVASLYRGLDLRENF
Chain of UniProt O60656 (whole entry, looked up): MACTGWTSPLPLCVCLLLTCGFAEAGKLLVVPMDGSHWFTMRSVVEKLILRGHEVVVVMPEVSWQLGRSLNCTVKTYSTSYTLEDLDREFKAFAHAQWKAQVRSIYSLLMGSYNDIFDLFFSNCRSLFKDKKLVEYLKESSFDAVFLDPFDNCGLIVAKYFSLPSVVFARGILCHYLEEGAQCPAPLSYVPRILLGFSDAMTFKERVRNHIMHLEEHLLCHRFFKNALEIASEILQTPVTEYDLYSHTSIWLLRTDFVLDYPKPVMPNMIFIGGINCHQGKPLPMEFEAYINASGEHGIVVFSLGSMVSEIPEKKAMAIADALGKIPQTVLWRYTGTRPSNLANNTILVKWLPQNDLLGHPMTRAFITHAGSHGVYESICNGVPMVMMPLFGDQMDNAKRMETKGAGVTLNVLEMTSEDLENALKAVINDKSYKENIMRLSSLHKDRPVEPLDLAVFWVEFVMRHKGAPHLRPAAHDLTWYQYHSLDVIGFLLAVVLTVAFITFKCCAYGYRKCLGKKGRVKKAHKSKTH
Chain of UniProt Q8QZR1 (whole entry, looked up): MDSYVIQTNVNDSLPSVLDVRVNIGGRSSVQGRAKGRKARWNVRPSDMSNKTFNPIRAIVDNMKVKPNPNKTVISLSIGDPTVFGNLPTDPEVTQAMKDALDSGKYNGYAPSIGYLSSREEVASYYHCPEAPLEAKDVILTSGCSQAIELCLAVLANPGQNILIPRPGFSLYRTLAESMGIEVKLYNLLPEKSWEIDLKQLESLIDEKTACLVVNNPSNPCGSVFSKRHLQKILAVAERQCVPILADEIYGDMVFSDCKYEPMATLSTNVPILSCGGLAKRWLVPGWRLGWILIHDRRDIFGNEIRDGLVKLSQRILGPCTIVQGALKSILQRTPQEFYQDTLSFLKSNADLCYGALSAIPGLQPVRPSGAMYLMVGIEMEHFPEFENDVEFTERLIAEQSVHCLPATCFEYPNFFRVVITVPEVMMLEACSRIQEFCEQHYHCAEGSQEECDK

`B1 (enzyme)` has a kcat of 90 ± 0.6 s⁻¹ (O=C(O)[C@@H](O)[C@H](O)[C@H](O)C(=O)CO; pH 7, 30 °C).
The kcat of `B2 (ybiA)` is reported as 0.8 ± 0.1 s⁻¹ (Nc1c(N[C@@H]2O[C@H](COP(=O)(O)O)[C@@H](O)[C@H]2O)[nH]c(=O)[nH]c1=O; pH 8, 22 °C, substrate not purified).
With `Saccharopine reductase (Saccharomyces cerevisiae, UniProt P38999)` the kcat was 1.9 ± 0.1 s⁻¹ (N[C@@H](CCC(=O)O)C(=O)O; pH 7, 25 °C, together with: NADPH, AASA).
`B3 (protein Y93N)` has a kcat of 4.1 ± 0.8 s⁻¹ (Nc1ccn([C@@H]2O[C@H](CO)[C@@H](O)[C@H]2O)c(=O)n1; pH 7.2, 25 °C, KCl 100 mM, together with: ATP 100–200 µM).
`MsrP (Escherichia coli, UniProt P76342)` gave a kcat of 168 ± 15 s⁻¹ (C[S@@+]([O-])CC[C@H](N)C(=O)O; pH 7, 30 °C, together with: benzyl viologen 0.4 mM).
With `B4` the kcat was 0.13 s⁻¹ (O=C(O)C(=O)C[C@@H](O)[C@H](O)C(=O)O; pH 8, together with: MgCl2 5 mM).
The kcat of `B5 (protein)` is reported as 0.467 ± 0.0333 s⁻¹ (O=c1ccn([C@H]2C[C@H](O)[C@@H](CO)O2)c(=O)[nH]1; phosphorolysis, single substrate, together with: phosphate).
`enzyme (Thermobifida fusca, UniProt Q47KB1)` gave a kcat of 10 s⁻¹ (Nc1c(S(=O)(=O)O)cc(Nc2cccc(S(=O)(=O)CCOS(=O)(=O)O)c2)c2c1C(=O)c1ccccc1C2=O; pH 3.5).
The Km of `UGT1A9 (Homo sapiens, UniProt O60656)` is reported as 0.23 µM (COc1cc(O)c2c(=O)c(O)c(-c3ccc(O)c(O)c3)oc2c1; pH 7.4, 37 °C).
`B6 (enzyme)` has a kcat of 2 ± 0.1 s⁻¹ (O=C(O)c1ccc(C(=O)O)cc1; pH 8, 25 °C, apparent).
For `B7 (iodotyrosine deiodinase)`, the kcat was 1.4 ± 0.15 s⁻¹ (COc1cc(C[C@H](N)C(=O)O)cc(I)c1O; pH 7.4, 25 °C).
For `B8 (Mj-MAT W387F/Y72W)`, the kcat was 1.62 ± 0.15 s⁻¹ (CSCC[C@H](N)C(=O)O; 55 °C, together with: ATP 2.5 mM, methionine 0.05-1 mM).
`B9 (sacB S173T)` gave a kcat of 108 ± 4.2 s⁻¹ (OC[C@H]1O[C@@](CO)(O[C@H]2O[C@H](CO)[C@@H](O)[C@H](O)[C@H]2O)[C@@H](O)[C@@H]1O; pH 6.6).
`enzyme (Acetivibrio thermocellus, UniProt A3DJ38)` has a kcat of 8.93 ± 0.4 s⁻¹ (Nc1ncnc2c1ncn2[C@@H]1O[C@H](CO)[C@H]2OP(=O)(O)O[C@H]21; pH 7.5, 45 °C).
With `B10 (enzyme D208A)` the kcat was 0.000117 to 0.0005 s⁻¹ (C[S+](CC[C@H](N)C(=O)O)C[C@H]1O[C@@H](n2cnc3c(N)ncnc32)[C@H](O)[C@@H]1O; pH 7.5, 50 °C, apparent).
`Tat (Mus musculus, UniProt Q8QZR1)` gave a kcat of 15.8 ± 4.33 s⁻¹ (O=C(O)C(=O)Cc1ccc(O)cc1; pH 7, 38 °C, together with: PLP).
`phyA (Aspergillus niger, UniProt P34752)` has a kcat of 136 ± 7 s⁻¹ (O=P(O)(O)O[C@@H]1[C@@H](OP(=O)(O)O)[C@H](OP(=O)(O)O)[C@@H](O)[C@@H](OP(=O)(O)O)[C@H]1OP(=O)(O)O; pH 5, 37 °C).
For `enzyme (Arabidopsis thaliana, UniProt Q9STE6)`, the kcat was 0.0166 s⁻¹ (CC(=O)N[C@H]1[C@@H](OP(=O)(O)OP(=O)(O)OC[C@H]2O[C@@H](n3ccc(=O)[nH]c3=O)[C@H](O)[C@@H]2O)O[C@H](CO)[C@@H](O)[C@@H]1O; pH 7.5, 25 °C).

For quick reference, copied from above:
`phyA (Aspergillus niger, UniProt P34752)` has a kcat of 136 ± 7 s⁻¹ (O=P(O)(O)O[C@@H]1[C@@H](OP(=O)(O)O)[C@H](OP(=O)(O)O)[C@@H](O)[C@@H](OP(=O)(O)O)[C@H]1OP(=O)(O)O; pH 5, 37 °C).
